Published values gathered from unrelated publications.
Numbered parts are unrelated; each lists some results of a single study. Changes are numbered by the printed parent chain.

Block 1
Target: RNA binding protein fox-1 homolog 2, RRM domain, GST-SBP tag (RBFOX2, Homo sapiens, UniProt O43251-10, residues 100-194)
Technique: RNA Bind-n-Seq
Form: RNA
Sample: in vitro
Tested at: 365 nM
Notes: natural RNA segment, single round, ends assumed
Reference: no-protein control
Reading: higher = stronger binding
Shared flanks, not repeated: GGGAGUUCUACAGUCCGACGAUC … UGGAAUUCUCGGGUGCCAA
Residues (chain): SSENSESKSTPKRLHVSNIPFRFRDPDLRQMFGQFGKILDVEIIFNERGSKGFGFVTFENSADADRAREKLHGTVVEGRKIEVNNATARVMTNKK
`UCUCAAUGUUCCAAGAGGUUCUGGCCUUCAGGGUCACAGGCAGUAGGGGGACAGCAUAAGGUCUAUGUAAAACCCUUCCCUCUCUGACCCUCUGUUUUCAAAUCUGUAAA`: “RBNS enrichment (R)” 0.304.
`CACAAACAUCAGCAAAACUUUGCCUCCCAAGAUAUAAAACCUAGAAACAGACCUGUGUUCCACCCUCUGCAAGAUAAUGUCCAACUACCAAGGUGAUGUUAAGGGCAUAG`: “RBNS enrichment (R)” 0.376.
`UGGAAAGCAUGGUCUACAAUUGGUUGUUAAAUUCUGAAGCUAUGAAGAAUAAAUGUUUCAACUUUGGAUUAUGAAACCCCAUUUAUGAUUUUUUAAAUACACUUGAAAUA`: “RBNS enrichment (R)” 18.2.
For `UCCCUAACAGCAGGCAGCAUCCAUGCUGAAGCACAUACACCUCCGCUCCUCACCAGUGGGUUUUCUUUAUUUAUGAAUUGAUCUGAUUUCUCAACCUCAUUUGAACUAAA`, “RBNS enrichment (R)” read 1.03.
For `GGCUGUAUGACAUUUUGAGCUCUUAACUGUGAAUGGCAUUCAUUAAGCUCCUUUAUCCUAUAGAUUCUAUCUUUAUGUUCAUCUGAAAUGAACUAUUCAUCAGUACUUUC`, “RBNS enrichment (R)” read 0.735.
`CAAACAGCCACGCCUCUCAGGAACCCACCUGGCGGUUCCGUGAGCUCAGGCAGGCCUGACCCGGCGGCACAGCCUGGCAGGGACCUCGUCCCCAAGCCUGGCAGAAUGAG` — result for “RBNS enrichment (R)”: 0.328.
`CCUUUUGGAGUCAGUCUCCAUGCAGUAAACAGACCCAGCAGAACCUGCCCGUGGUGAGCUCAGCCAAGACUUGGCUCUCCAUGUUCCAGCCUCCGUCUGUGACUGGGUGG` — result for “RBNS enrichment (R)”: 0.249.
`UUAUAUUAAUUGCCAAUAUAAGUAAAUAUAGAUUAUAUAUGUAUAGUGUUUCACAAAGCUUAGACCUUUACCUUCCAGCCACCCCACAGUGCUUGAUAUUUCAGAGUCAG` — result for “RBNS enrichment (R)”: 0.754.

Block 2
Target: ABI1, truncated, D143A, DHFR fusion (Arabidopsis thaliana)
Technique: DHFR PCA, deep sequencing
Sample: yeast
Notes: methotrexate growth selection, single substitutions
Added: (+)-ABA 58 µM
Reference: wild-type fitted maximum
Reading: higher = stronger binding
Starting sequence: PYL1, truncated, DHFR fusion (Arabidopsis thaliana); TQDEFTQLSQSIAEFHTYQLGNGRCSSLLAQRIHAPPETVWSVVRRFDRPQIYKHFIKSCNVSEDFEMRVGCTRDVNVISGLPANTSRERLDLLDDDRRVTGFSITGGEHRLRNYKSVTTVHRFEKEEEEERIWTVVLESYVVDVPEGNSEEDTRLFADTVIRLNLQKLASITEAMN
Under “relative binding score”, `C60G` is recorded as -2.05%.
`P146H` — result for “relative binding score”: 16.9%.
For `V44K`, “relative binding score” read 1.54%.
Under “relative binding score”, `F103N` is recorded as -6.39%.
`E67C` — result for “relative binding score”: 81.2%.
Under “relative binding score”, `V143W` is recorded as -0.819%.
`E127G` — result for “relative binding score”: 86.5%.
Under “relative binding score”, `T1A` is recorded as 91.3%.
`N22K` — result for “relative binding score”: 96%.
`V137R`: “relative binding score” -5.03%.
For `T6M`, “relative binding score” read 96.6%.
For `Y141R`, “relative binding score” read -8.05%.
Under “relative binding score”, `D48W` is recorded as 11.9%.
Under “relative binding score”, `Y141S` is recorded as -1.09%.

Block 3
Target: Histone acetyltransferase KAT6A, both winged helices, GST fusion (KAT6A, Homo sapiens, UniProt Q92794, residues 1-181)
Technique: protein binding microarray
Form: double-stranded DNA, one strand shown
Sample: in vitro
Tested at: not given
Notes: 8-mer, flanks averaged, mean of 2 arrays, mostly near background
Reference: not given
Reading: higher = stronger binding
Residues (chain): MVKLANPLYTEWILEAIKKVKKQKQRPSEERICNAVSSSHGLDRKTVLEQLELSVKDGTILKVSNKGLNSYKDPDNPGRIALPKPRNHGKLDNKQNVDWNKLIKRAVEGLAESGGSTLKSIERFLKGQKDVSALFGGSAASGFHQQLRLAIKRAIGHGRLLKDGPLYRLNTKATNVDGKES
For `GATCAGGA`, the E-score was -0.218.
`CTCGAGCA` has an E-score of -0.166.
The E-score of `GTGTACAA` is reported as 0.0705.
`GAAAAGAC` gave an E-score of 0.00253.
`AACATTCG` has an E-score of -0.0133.
`GACGATAC` has an E-score of 0.11.
For `CAAGATCA`, the E-score was -0.114.
With `GGACTCAA` the E-score was -0.0127.
`CAGATTCA` has an E-score of -0.186.
For `GTACAGCA`, the E-score was 0.00133.
`CCTAGCAC` gave an E-score of -0.0345.
`ACCAGTAC` gave an E-score of -0.075.
For `ACCTTCCA`, the E-score was -0.0213.
`ACATACCA` gave an E-score of -0.0488.
`ACTGCACC` has an E-score of -0.00912.
`ACGCGGAT` has an E-score of 0.242.
For `GACTACAA`, the E-score was -0.136.
`CACAGTCG` has an E-score of -0.0246.
With `CCCTGCCA` the E-score was -0.0993.
`CAACCTCG` gave an E-score of 0.0646.
`GCGGACCC` gave an E-score of 0.241.

Block 4
Target: Interferon regulatory factor 5, full length, phosphomimetic (IRF5, Homo sapiens, UniProt Q13568-2, residues 1-514, S451D/S453D/S456D/S462D)
Technique: protein-binding microarray
Form: double-stranded DNA, one strand shown
Sample: in vitro
Tested at: 940 nM top
Notes: 60-bp whole probe
Added: salmon DNA 0.4 mg/ml
Reference: random background probes
Reading: higher = stronger binding
Shared flanks, not repeated: GCCTAGCAC … GTCTTGATTCGCTTGACGCTGCTG
For `TAAGAACTGAGTATCGATTAGTGCTAG`, “fitted relative affinity” read 4.46 z-score.
Under “fitted relative affinity”, `GACGGACTGGACACTAGGGACGTGCTA` is recorded as -0.384 z-score.
For `GACGATATCAGTGTCGAGACGTGCTAG`, “fitted relative affinity” read 0.00434 z-score.
Under “fitted relative affinity”, `TCAGTTACGGAATTTCCCACTGTGCTA` is recorded as 0.42 z-score.
`TTAGGTTTCGACTTTTGGTTAGTGCTA`: “fitted relative affinity” 7.65 z-score.
`GACGGACAGCTTCTCCTGACGTGCTAG` — result for “fitted relative affinity”: -0.664 z-score.
Under “fitted relative affinity”, `TTAGGTCTCCTACTGCTTTTGTGCTAG` is recorded as 0.143 z-score.
`TTAGACATCAGTTTCGATTAGTGCTAG`: “fitted relative affinity” 7.67 z-score.
Under “fitted relative affinity”, `GACGATTTCAGTTTCAAGACGTGCTAG` is recorded as 1.66 z-score.
`TTAGACCTGGGGACTGGATTAGTGCTA`: “fitted relative affinity” 0.0481 z-score.
For `TTAGATATCTGTCTCGATTAGTGCTAG`, “fitted relative affinity” read 1.72 z-score.
`CACGGTTCCCTTTTCCTGACGTGCTAG`: “fitted relative affinity” 0.706 z-score.
`TACTTTCTGAATGCTCCCCCTGTGCTA`: “fitted relative affinity” 2.31 z-score.
Under “fitted relative affinity”, `TTAGGACTGCTTCTCCTGTAGTGCTAG` is recorded as -0.158 z-score.
Under “fitted relative affinity”, `AATGAGGCACTGAGAGCAGAGTGCTAG` is recorded as -0.72 z-score.
For `TTAGGTCTCCTTTGCCTTTAGTGCTAG`, “fitted relative affinity” read 0.263 z-score.
`GACAGTTTCGGTCTCGGGACGTGCTAG` — result for “fitted relative affinity”: 14.4 z-score.
`GACGGACTGCTTATCCGGACGTGCTAG` — result for “fitted relative affinity”: -0.238 z-score.
`TTAGAACTGGGGACTGGAATAGTGCTA` — result for “fitted relative affinity”: -0.172 z-score.

Block 5
Target: Sal-like protein 4, full length isoform B (SALL4, Homo sapiens, UniProt Q9UJQ4-2, residues 1-616)
Technique: universal PBM
Form: double-stranded DNA, one strand shown
Sample: in vitro
Tested at: not given
Notes: 8-mer, flanks averaged, mean of replicates
Reading: higher = stronger binding
Residues (chain): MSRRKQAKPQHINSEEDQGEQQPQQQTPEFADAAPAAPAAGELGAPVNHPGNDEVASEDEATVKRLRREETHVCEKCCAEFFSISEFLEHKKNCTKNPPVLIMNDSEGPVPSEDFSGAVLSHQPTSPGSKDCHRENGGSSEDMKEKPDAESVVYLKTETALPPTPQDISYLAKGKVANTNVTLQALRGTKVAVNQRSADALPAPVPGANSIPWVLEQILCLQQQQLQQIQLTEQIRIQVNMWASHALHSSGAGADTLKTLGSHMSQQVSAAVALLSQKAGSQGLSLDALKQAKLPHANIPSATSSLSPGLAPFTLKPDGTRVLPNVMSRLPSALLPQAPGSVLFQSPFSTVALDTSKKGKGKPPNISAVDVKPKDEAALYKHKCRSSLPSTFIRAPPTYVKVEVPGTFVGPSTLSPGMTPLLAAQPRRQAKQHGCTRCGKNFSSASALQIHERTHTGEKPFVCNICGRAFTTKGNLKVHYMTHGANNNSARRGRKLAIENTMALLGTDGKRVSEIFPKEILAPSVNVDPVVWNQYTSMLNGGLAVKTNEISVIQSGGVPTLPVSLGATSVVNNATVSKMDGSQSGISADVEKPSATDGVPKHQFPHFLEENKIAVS
`GCGACACC` gave an E-score of -0.274.
`ACGCGGCA` has an E-score of -0.333.
With `AAAGCGCC` the E-score was -0.145.
`GACATAAA` gave an E-score of 0.275.
With `AAAACGGC` the E-score was -0.0382.
With `ATTAGTGA` the E-score was 0.164.
`TAGTTTCA` gave an E-score of 0.276.
For `CACCGCAA`, the E-score was -0.0761.
With `ATAAGGAA` the E-score was 0.13.
`ACGGATCC` gave an E-score of -0.301.
For `ACATAAGA`, the E-score was 0.29.
For `CACAGTGG`, the E-score was -0.0163.
`CAGGTTGG` gave an E-score of -0.205.
The E-score of `CTCGGGAC` is reported as -0.243.
The E-score of `ATCTGCGG` is reported as -0.0282.
With `AACTGCGG` the E-score was -0.118.
With `CCCGGTGC` the E-score was -0.321.
For `ATCAGTAC`, the E-score was 0.158.
`ACACACCC` gave an E-score of -0.00225.
The E-score of `ACGAAATA` is reported as 0.268.
`CTAGGGGC` gave an E-score of -0.193.

A few entries again (block 4):
Under “fitted relative affinity”, `AATGAGGCACTGAGAGCAGAGTGCTAG` is recorded as -0.72 z-score.
`TTAGACATCAGTTTCGATTAGTGCTAG`: “fitted relative affinity” 7.67 z-score.
`GACGGACTGCTTATCCGGACGTGCTAG` — result for “fitted relative affinity”: -0.238 z-score.
For `TTAGATATCTGTCTCGATTAGTGCTAG`, “fitted relative affinity” read 1.72 z-score.
Under “fitted relative affinity”, `TTAGGTCTCCTACTGCTTTTGTGCTAG` is recorded as 0.143 z-score.
For `TTAGGTCTCCTTTGCCTTTAGTGCTAG`, “fitted relative affinity” read 0.263 z-score.
Under “fitted relative affinity”, `GACGGACTGGACACTAGGGACGTGCTA` is recorded as -0.384 z-score.
Under “fitted relative affinity”, `TTAGGACTGCTTCTCCTGTAGTGCTAG` is recorded as -0.158 z-score.
`CACGGTTCCCTTTTCCTGACGTGCTAG`: “fitted relative affinity” 0.706 z-score.
For `GACGATATCAGTGTCGAGACGTGCTAG`, “fitted relative affinity” read 0.00434 z-score.
`TTAGAACTGGGGACTGGAATAGTGCTA` — result for “fitted relative affinity”: -0.172 z-score.
`TACTTTCTGAATGCTCCCCCTGTGCTA`: “fitted relative affinity” 2.31 z-score.
